Published values from different studies.
Numbered parts are unrelated; each lists some results of a single study.

Study 1
Target: Sal-like protein 4, full length isoform A (SALL4, Homo sapiens, UniProt Q9UJQ4, residues 1-1053)
Chain of UniProt Q9UJQ4 (whole entry, looked up): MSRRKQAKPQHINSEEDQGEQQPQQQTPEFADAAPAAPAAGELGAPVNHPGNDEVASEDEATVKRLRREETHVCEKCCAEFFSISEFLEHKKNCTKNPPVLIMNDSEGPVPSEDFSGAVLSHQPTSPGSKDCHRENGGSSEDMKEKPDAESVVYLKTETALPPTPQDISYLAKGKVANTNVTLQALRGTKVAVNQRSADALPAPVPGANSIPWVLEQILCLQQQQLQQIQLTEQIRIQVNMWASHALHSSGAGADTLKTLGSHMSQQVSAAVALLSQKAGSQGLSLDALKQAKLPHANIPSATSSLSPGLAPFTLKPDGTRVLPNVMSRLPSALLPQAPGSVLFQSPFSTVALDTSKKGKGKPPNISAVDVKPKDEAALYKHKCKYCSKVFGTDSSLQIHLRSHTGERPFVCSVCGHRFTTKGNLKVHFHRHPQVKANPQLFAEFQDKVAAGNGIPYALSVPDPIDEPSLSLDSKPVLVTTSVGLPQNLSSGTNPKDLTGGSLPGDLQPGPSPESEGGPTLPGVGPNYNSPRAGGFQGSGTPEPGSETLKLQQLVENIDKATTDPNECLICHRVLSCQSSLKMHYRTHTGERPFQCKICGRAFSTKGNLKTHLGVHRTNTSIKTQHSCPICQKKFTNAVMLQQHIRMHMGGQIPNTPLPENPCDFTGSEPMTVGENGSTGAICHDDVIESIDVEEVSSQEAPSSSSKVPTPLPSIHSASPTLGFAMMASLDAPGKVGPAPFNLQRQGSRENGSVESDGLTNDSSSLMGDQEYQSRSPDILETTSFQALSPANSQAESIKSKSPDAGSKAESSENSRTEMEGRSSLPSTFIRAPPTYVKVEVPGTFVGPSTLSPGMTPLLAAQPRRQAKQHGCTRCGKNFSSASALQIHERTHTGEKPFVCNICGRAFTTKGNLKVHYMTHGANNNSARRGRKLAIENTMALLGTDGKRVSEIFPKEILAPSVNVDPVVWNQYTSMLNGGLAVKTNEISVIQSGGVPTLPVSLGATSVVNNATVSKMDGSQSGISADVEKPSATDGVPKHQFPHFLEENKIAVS
Technique: universal PBM
Form: double-stranded DNA, one strand shown
Sample: in vitro
Concentration: 600 nM
Setting: 8-mer, flanks averaged, mean of replicates
Reading: higher = stronger binding
Endpoint: E-score
Sequence = AGGATTGC; value = -0.133
Sequence = GGCATTCA; value = -0.046
Sequence = TAGCTTAA; value = 0.146
Sequence = AAAATTTA; value = 0.333
Sequence = GTGTTGGA; value = -0.0714

Study 2
Target: Phosphate system positive regulatory protein PHO4, full length, GST-tagged (PHO4, Saccharomyces cerevisiae, UniProt P07270, residues 1-312)
Technique: competition protein-binding microarray
Form: double-stranded DNA, one strand shown
Sample: in vitro
Concentration: 2 µM
Setting: whole 60-bp probe, lowest competitor level
Added: Cbf1 competitor, 0.05 µM
Reading: higher = stronger binding
Endpoint: fluorescence intensity
Constant ends, left off below: … GTCTTGATTCGCTTGACGCTGCTG
Residues (chain): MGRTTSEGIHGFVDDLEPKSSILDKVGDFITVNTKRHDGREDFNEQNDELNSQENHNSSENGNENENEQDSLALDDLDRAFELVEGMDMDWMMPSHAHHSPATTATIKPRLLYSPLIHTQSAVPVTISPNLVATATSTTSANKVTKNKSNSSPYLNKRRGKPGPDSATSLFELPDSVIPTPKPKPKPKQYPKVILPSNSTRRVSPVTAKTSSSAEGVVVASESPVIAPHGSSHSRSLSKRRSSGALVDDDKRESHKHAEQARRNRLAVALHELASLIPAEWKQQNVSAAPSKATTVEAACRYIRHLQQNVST
Sequence = TACTTACCCTACCACCACATGCCGTATCCACCCTCA; value = 10300 a.u.
Sequence = TGTTCTTCGTAGAAATGCATGCAGAAAAATTTTGAT; value = 6600 a.u.
Sequence = CGGGGTTAAGTTTGTCAGGTGGGTGGCTTGCAGCAG; value = 6280 a.u.
Sequence = CGTCCTAGTGATTGCTCCGTGGGTGCCATGAGGAAG; value = 7260 a.u.
Sequence = TTGGCTTAAATTTGTCACGTGAAGCTCTATTTTTTT; value = 12300 a.u.

Study 3
Target: Protein C-ets-1 (ETS1, Homo sapiens, UniProt P14921, residues 1-441, Y397A, full length assumed)
Chain of UniProt P14921 (whole entry, unmodified, looked up): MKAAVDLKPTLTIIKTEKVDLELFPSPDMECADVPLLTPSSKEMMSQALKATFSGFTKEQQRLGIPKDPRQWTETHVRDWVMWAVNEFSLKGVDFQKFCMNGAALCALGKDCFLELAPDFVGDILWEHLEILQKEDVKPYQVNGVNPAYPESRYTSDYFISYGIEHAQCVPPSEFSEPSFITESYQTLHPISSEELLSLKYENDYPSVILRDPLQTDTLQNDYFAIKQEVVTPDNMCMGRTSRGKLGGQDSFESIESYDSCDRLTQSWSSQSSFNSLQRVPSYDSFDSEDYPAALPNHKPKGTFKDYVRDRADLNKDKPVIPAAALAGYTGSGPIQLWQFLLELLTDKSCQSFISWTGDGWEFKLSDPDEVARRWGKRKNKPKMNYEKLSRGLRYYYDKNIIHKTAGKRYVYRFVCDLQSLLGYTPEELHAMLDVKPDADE
Technique: protein-binding microarray
Form: double-stranded DNA, one strand shown
Sample: in vitro
Concentration: not given
Setting: k-mer, scored over probes, only values ≥0.25
Reading: higher = stronger binding
Endpoint: E-score
Sequence = ACACGTCA; value = 0.261
Sequence = GTGTGTCA; value = 0.263
Sequence = TAATTGCA; value = 0.261
Sequence = ACAACAAC; value = 0.331

Mixed results
Molecule = PhoQ, residues 284 288 289 292 302 303 SLANKL; target = PhoP, residues 12 14 15 18 19 VHSCL (Escherichia coli, UniProt P23836); test = Sort-seq, refers to: YFP reporter; system = E. coli; conditions = PhoQ-PhoP variant library, added: 10 µM Mg2+; scale = relative to: high Mg2+ state, higher = stronger signaling; endpoint = fold induction; value = 12

For quick reference, copied from above (mixed results):
Molecule = PhoQ, residues 284 288 289 292 302 303 SLANKL; target = PhoP, residues 12 14 15 18 19 VHSCL (Escherichia coli, UniProt P23836); test = Sort-seq, refers to: YFP reporter; system = E. coli; conditions = PhoQ-PhoP variant library, added: 10 µM Mg2+; scale = relative to: high Mg2+ state, higher = stronger signaling; endpoint = fold induction; value = 12
